Measurements pooled from the literature.
Compare with care: the assays were run in different laboratories. ± marks the error that the study gave. Converted amounts (≈) assume the structure as drawn.
Cell line: Caco-2

Compound	test	test system	setting	scale	measurement	result
CCCCn1cc(C(=O)O)c(=O)c2cc(F)c3[nH]nnc3c21	cell growth, SRB	–	72 h	–	IC50	198 ± 44.1 µg/mL (≈ 652 µM)
C[n+]1cc2cc3cc(ccc31)NC(=O)CCCCC(=O)Nc1ccc3c(c1)cc(c[n+]3C)C(=O)NCc1cccc(c1)CNC2=O	–	–	pH 6.5, intrinsic permeability, together with: transporter inhibitor cocktail	–	Papp A-B	0.1 ×10⁻⁶ cm/s
CCCCn1cc(C(=O)O)c(=O)c2cc(F)c(N)c([N+](=O)[O-])c21	cell growth, SRB	–	72 h	–	IC50	205 ± 25.9 µg/mL (≈ 634 µM)
Cc1ncc([N+](=O)[O-])n1CCOCc1nnc(SCC(=O)c2ccc(Br)cc2)o1	cell growth or viability, MTT	–	6 µM, 48 h	–	viability	97.5%
C=C(C)C(=O)Nc1ccc(-c2c(-c3ccc(Oc4nccc(C)n4)cc3)c3c(N)ncnc3n2C)cc1	–	–	–	baseline: B-A over A-B	efflux ratio	1.3
CCN(CC)CC#CCNc1ccnc2cc(Cl)ccc12	–	–	10 µM, 90 min, pH 7.4	apical to basolateral	apparent permeability	15 ×10⁻⁶ cm/s
COc1cc(-c2cncc(-c3ccc(N4CCN(C)CC4)cc3)c2C)cc(OC)c1OC	–	–	5 µM, 120 min, pH 7.4	baseline: B-A over A-B	efflux ratio	0.9
COC(=O)NC(C(=O)NN(Cc1ccc(Br)cc1)CC(O)(Cc1ccccc1)C(=O)NC1CCOC1)C(C)(C)C (stereo not drawn)	–	–	pH 7.4, 1% BSA in receiver	–	Papp B-to-A	58 ± 7.5 ×10⁻⁶ cm/s
CCNCC#CCNc1ccnc2cc(Cl)ccc12	–	–	10 µM, 90 min, pH 7.4	basolateral to apical	apparent permeability	11 ×10⁻⁶ cm/s
CCCCC[C@@H]1OC(=O)[C@@H](C)NC(=O)[C@H](CCCCC)OC(=O)[C@@H](C)NC(=O)[C@H](CCCCC)OC(=O)[C@@H](C)NC(=O)[C@H](CCCCC)OC(=O)[C@@H](C)NC1=O	–	–	10 µM	baseline: B-A over A-B	efflux ratio	0.482
COCCNC(=O)C(NC(=O)C(O)(Cc1ccccc1)CN(Cc1ccc(Br)cc1)NC(=O)C(NC(=O)OC)C(C)(C)C)C(C)C (stereo not drawn)	–	–	pH 7.4	baseline: B-to-A over A-to-B	efflux ratio	65
Cc1ncc([N+](=O)[O-])n1CCOCc1nnc(SCC(=O)c2ccc(Cl)cc2)o1	cell growth or viability, MTT	–	6 µM, 48 h	–	viability	91.8%
C1=CCCC=CCC1.F[P-](F)(F)(F)(F)F.[Pt+][c]1ccccc1P(=Nc1ccccc1)(c1ccccc1)c1ccccc1	Caco-2 monolayer transport	HBSS with HEPES	20 µM, 90 min	–	Papp	27.1 ×10⁻⁶ cm/s
COC(=O)NC(C(=O)NN(Cc1ccc(C=Cc2ccccc2)cc1)CC(O)(Cc1ccccc1)C(=O)NC1c2ccccc2CC1O)C(C)(C)C (stereo not drawn)	–	–	pH 7.4, 1% BSA in receiver	–	Papp B-to-A	2.5 ± 0.1 ×10⁻⁶ cm/s
CC[C@H](C)[C@@H]1NC(=O)[C@H](CCCCN)NC(=O)[C@H]([C@@H](C)O)NC(=O)[C@H](Cc2ccccc2)NC(=O)[C@H]([C@@H](C)CC)NC(=O)[C@@H]2CCCN2C(=O)[C@@H]2CSSC[C@@H](C(=O)N[C@@H](CCCCN)C(=O)O)NC(=O)[C@@H]3CSSC[C@H](NC(=O)[C@H](CC(N)=O)NC(=O)[C@H](Cc4ccc(O)cc4)NC(=O)[C@H](Cc4c[nH]cn4)NC(=O)[C@@H](N)CC(=O)O)C(=O)N[C@@H](C(C)C)C(=O)N[C@@H](CO)C(=O)N[C@@H](CO)C(=O)NCC(=O)NCC(=O)N[C@@H](CCC(N)=O)C(=O)N[C@@H](CSSC[C@H](NC(=O)[C@H]([C@@H](C)O)NC(=O)CNC(=O)[C@H](CCC(N)=O)NC1=O)C(=O)N[C@@H](Cc1ccc(O)cc1)C(=O)N[C@@H](CCCNC(=N)N)C(=O)NCC(=O)N[C@@H](CCCCN)C(=O)N[C@@H](C)C(=O)N[C@@H](CCCCN)C(=O)N3)C(=O)N[C@@H](CC(C)C)C(=O)N[C@@H](Cc1ccc(O)cc1)C(=O)N[C@@H](CO)C(=O)N[C@@H](C)C(=O)N2	MTT	–	up to 25.0 µM, 48 and 72 h	–	viability reduction	~25%
CC(=NNC(=N)N)c1nnn(-c2ccc(C#CC3(O)CCCCC3)cc2)c1C	cell growth or viability, MTT	–	–	–	IC50	22 µg/mL (≈ 57.9 µM)
COC(=O)NC(C(=O)NN(Cc1ccc(Br)cc1)CC(O)(Cc1ccccc1)C(=O)NCc1ccccc1)C(C)(C)C (stereo not drawn)	–	–	pH 7.4	baseline: B-to-A over A-to-B	efflux ratio	0.3
COC(=O)c1ccc2c(c1)NC(=O)/C2=C(\Nc1ccc2c(c1)CCN2C(=O)CN1CCOCC1)c1ccccc1	–	–	20 µM, 120 min, 1% DMSO	–	efflux ratio	1.15
COC(=O)NC(C(=O)NN(Cc1ccc(Br)cc1)CC(O)(Cc1ccccc1)C(=O)NC1c2ccccc2CC1O)C(C)(C)C (stereo not drawn)	–	–	pH 7.4, 1% BSA in receiver	–	Papp A-to-B	97.8 ± 12 ×10⁻⁶ cm/s
CC1(C)CCN(Cc2ccc(C(=O)NC[C@]3(O)CCCN(c4cc(NCc5ccccc5)ncn4)C3)c(O)c2)CC1	–	–	10 µM, 90 min, apical to basolateral	–	mass recovery	82.4%
COC(=O)NC(C(=O)NN(Cc1ccc(-c2ccccc2)cc1)CC(O)(Cc1ccccc1)C(=O)NC1c2ccccc2CC1O)C(C)(C)C (stereo not drawn)	–	–	pH 7.4, 1% BSA in receiver	–	Papp B-to-A	27.9 ± 2 ×10⁻⁶ cm/s
C#Cc1cccc(Nc2ncnc3cc(OC)c(OCCCN4CCOCC4)cc23)c1	–	–	10 µM, 90 min	baseline: B-A over A-B	efflux ratio	2.51
COc1ccc(C(=O)CSc2nnc(COCCn3c([N+](=O)[O-])cnc3C)o2)cc1F	cell growth or viability, MTT	–	6 µM, 48 h	–	viability	109%
COC(=O)NC(C(=O)NN(Cc1ccc(Br)cc1)CC(O)(Cc1ccccc1)C(=O)Nc1cccc(O)c1C)C(C)(C)C (stereo not drawn)	–	–	pH 7.4, 1% BSA in receiver	–	Papp A-to-B	188 ± 17.4 ×10⁻⁶ cm/s
